Results from different studies.
Every numbered part comes from another study and shows a few of its results, in no order. Substitutions count along the parent as printed.

Series 1 — method: RNA Bind-n-Seq; molecule type: RNA; matrix: in vitro; concentration: 365 nM; relative to: no-protein control; direction: higher = stronger binding; quantity: RBNS enrichment (R)
Target: RNA binding protein fox-1 homolog 2, RRM domain, GST-SBP tag (RBFOX2, Homo sapiens, UniProt O43251-10, residues 100-194)
Setting: natural RNA segment, single round, ends assumed
Target sequence (chain): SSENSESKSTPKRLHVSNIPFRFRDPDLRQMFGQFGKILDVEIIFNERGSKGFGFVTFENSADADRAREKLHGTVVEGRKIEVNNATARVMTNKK
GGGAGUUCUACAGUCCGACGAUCUUGGGAGUGAGGAUGUGUCCAUUUGGACCAAACACUUUGUUUUGUUUUAUUUAGAUUUUGUUUUUCAUCUUACUAUGUACCAGUGGCACUUAACCAAAAGAUACAGUAACUGGAAUUCUCGGGUGCCAA: 0.392
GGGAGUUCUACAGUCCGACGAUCUUGCCUUCUAGACACUGAAGGCAAAUCUCCUUUGUCCAUUUACCUGGAAACCAGAAUGAUUUUGACAUACAGGAGAGCUGCAGUUGUGAAAGCACCAUCAUCAUAGAGGAUGGAAUUCUCGGGUGCCAA: 0.229
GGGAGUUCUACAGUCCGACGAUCCAAAGGAUGCAUACAGGAUAUUUUGGAGCAUCAUCCUCGAAGAAAAGUCAGUUAAACCAUUUAGUUCAUCAGGAAUAUUUAAAAUAUUCUGCAUGAAUCCGUGUGGCUGUUGGAAUUCUCGGGUGCCAA: 0.351
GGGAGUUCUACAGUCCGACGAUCCUUCUGCUGCCUGACCUCUGCAUGGUGUCUUGACCUGGGCCUCAUGUGUAGCUGCACUGCCUUUGUCCACUAAGACCUCUAGUUUUUGGUGUAAAAGGGUCCCUGGUUUCUGGAAUUCUCGGGUGCCAA: 1.72
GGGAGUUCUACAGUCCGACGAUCUAGAACUGUCAAAUUCAUCUCCCUGAAUUUGUCUUAAAGGGGUGUCCAUGCACAGGCCCAAGAGUCACCUCCAAUGAAAUAAAUGUAAUACUGAAGUAUGCCAUGAUGUUUGGAAUUCUCGGGUGCCAA: 0.839
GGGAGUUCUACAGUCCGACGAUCAUCUUCUGUUGAUUUACACCUUUGACAUUUGUAUUCGUCAACCCUGUGGCUUGUUAGCAUCAGAACCUCUCUGAAGACCAAACUUCCCUGUGUGGCCAGCAGAGGAAGCCUGGAAUUCUCGGGUGCCAA: 0.539
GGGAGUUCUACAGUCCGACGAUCCAAACUUGAAUAGGGGCUGGGGUGCUGUCUUCCACUGACACCCAAAUCCAGAAUCCCUGGUCUUGAGUCCCCAGAACUUUGCCUCUUGACUGUCCCUUCUCUUCCUACCUUGGAAUUCUCGGGUGCCAA: 0.309
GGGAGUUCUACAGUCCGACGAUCCGCUGUGCUCAGAUGCUGACGAGACUCCUUUGCUAGACUCCCCUAGUUAGGGCCUCUGCAGCUUAUGGUGGCUUAAAAUGGAGAGAGCAUCUUGCCUGGCCGAGUGUUUGUGGAAUUCUCGGGUGCCAA: 0.929

Series 2 — method: RNA Bind-n-Seq; molecule type: RNA; matrix: in vitro; concentration: 200 nM; setting: whole 134-nt RNA, ends assumed; with: 150 mM LiCl; relative to: input library; direction: higher = stronger binding; quantity: log2 enrichment; all molecules: 7-deaza-guanosine replaces G
Target: Fragile X messenger ribonucleoprotein 1, C-terminal low-complexity region (Fmr1, Mus musculus, UniProt P35922)
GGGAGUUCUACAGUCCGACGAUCAAGUCCUGUGCUACACAUCGUAUGUACCGAAUCGGAAAAGGGAAAAGGGGAAAAGGGAAAGUAUUAUGUUACGCCGUUCGGAUCUGCACUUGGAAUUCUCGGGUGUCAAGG: 0.196
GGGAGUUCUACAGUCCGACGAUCGUCCUGUGCUACACAUCGUAUGUACCGAAUCGGGAAAAAGGGGAAAAAGGGAAAAAGGAAAGUAUUAUGUUACGCCGUUCGGAUCUGCACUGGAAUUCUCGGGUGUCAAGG: 0.251
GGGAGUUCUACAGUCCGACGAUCCCCAUUCCAAGAUUUGCUGUUGGCAUUGUAAUAGGAAGAAAUGGAGAGAUGAUCAAAAAAAUACAAAAUGAUGCUGGUGUUCGCAUUCAGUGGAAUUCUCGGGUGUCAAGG: -0.571
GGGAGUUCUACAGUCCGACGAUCACCAUGCAGGUGGGCAUCUUUGGGAAGUGGGGCAAGGGGGGGAUAGGGAGGGGGGUAACACUUUGGGAACAGGUGGUCCCAGAAAGUUUCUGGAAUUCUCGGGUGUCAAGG: 0.868
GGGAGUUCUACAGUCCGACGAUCGUCCUGUGCUACACAUCGUAUGUACCGAAUCGGGGCCCCCGGCCCCCGGCCCCCGGGGAAAGUAUUAUGUUACGCCGUUCGGAUCUGCACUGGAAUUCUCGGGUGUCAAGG: -1.48
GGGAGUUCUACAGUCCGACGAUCAAGUCCUGUGCUACACAUCGUAUGUACCGAAUCGGAAAAAAAGGAGGAAAAAAAGGAAAGUAUUAUGUUACGCCGUUCGGAUCUGCACUUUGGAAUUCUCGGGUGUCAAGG: -0.898
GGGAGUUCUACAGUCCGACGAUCCUGUGCUACACAUCGUAUGUACCGAAUCGGGGCCCCCCCGGCCCCCCCGGCCCCCCCGGGGAAAGUAUUAUGUUACGCCGUUCGGAUCUGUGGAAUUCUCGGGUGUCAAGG: 0.659
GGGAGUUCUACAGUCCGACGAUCCUCAAGUCCUGUGCUACACAUCGUAUGUACCGAAUCGGGCCCGGCCCGGCCCGGAAAGUAUUAUGUUACGCCGUUCGGAUCUGCACUUCCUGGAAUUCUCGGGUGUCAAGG: -0.793

Series 3 — target: CCND2, cyclin fold, Cln2 fusion (human); method: yeast growth competition, sequencing; matrix: yeast; setting: weak parent motif; relative to: not given; direction: higher = stronger binding; quantity: normalised enrichment score
Starting sequence: SAMHD1 docking peptide (human); ASKSRVQLFKDDP
ASKSRSQLFKDDP [V6S]: -0.311
ASKSRVQVFKDDP [L8V]: 0.0481
ALKSRVQLFKDDP [S2L]: 0.0552
ASKSRVQLDKDDP [F9D]: 0.118
ASKSRVQLFIDDP [K10I]: 0.154
ASKSRVQLKKDDP [F9K]: -0.125
ASKSRVQLFKSDP [D11S]: 0.405
ASKSRVQKFKDDP [L8K]: 0.332
ASKSRVFLFKDDP [Q7F]: 0.186
ASKSTVQLFKDDP [R5T]: 0.115
ASKSRVQLFDDDP [K10D]: 0.373
ASKSRVQLFQDDP [K10Q]: -0.046
ASKLRVQLFKDDP [S4L]: -0.134
ASKSRVQLFKDTP [D12T]: 0.135
ASKSRVQLGKDDP [F9G]: -0.271
ASKSRVQLFKIDP [D11I]: 0.0669
ASKSRVMLFKDDP [Q7M]: -0.203
ASKSRVQLFFDDP [K10F]: -0.243
ASKSRVQLFKDRP [D12R]: -0.265

Series 4 — target: CREB3L3, bZIP domain (human); method: DHFR protein complementation; matrix: yeast; relative to: wild-type JUN-FOS pair; direction: higher = stronger binding; quantity: binding fitness
Setting: single substitutions, most at no-binding floor
Starting sequence: JUN, bZIP domain (human); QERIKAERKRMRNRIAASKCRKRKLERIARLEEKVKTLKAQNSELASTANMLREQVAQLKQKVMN; partner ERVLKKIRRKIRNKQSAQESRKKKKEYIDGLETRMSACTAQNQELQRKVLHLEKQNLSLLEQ
A40Q: -1.03 natural log
R53T: -1.43 natural log
E32R: -1.37 natural log
Q41P: -1.48 natural log
T37W: -1.16 natural log
L45V: -1.51 natural log
S47W: -1.52 natural log
A40M: -1.46 natural log
A29K: -1.46 natural log
L45E: -1.48 natural log
A40S: -1.43 natural log
A29V: -1.5 natural log
Q55P: -1.46 natural log
A29F: -1.51 natural log
A57V: -1.25 natural log
T48M: -1.6 natural log
K39Q: -1.49 natural log
L45N: -1.5 natural log

Excerpt of the above (series 4):
R53T: -1.43 natural log
K39Q: -1.49 natural log
Q41P: -1.48 natural log
L45N: -1.5 natural log
A40M: -1.46 natural log
A29V: -1.5 natural log
S47W: -1.52 natural log
